Measurements of several laboratories.
Each line is one published result; not all experiments were run side by side. ± marks the error that the study gave.
MAPK14: Mitogen-activated protein kinase 14 (MAPK14, Homo sapiens, UniProt Q16539)
Chain of UniProt Q16539 (whole entry, looked up): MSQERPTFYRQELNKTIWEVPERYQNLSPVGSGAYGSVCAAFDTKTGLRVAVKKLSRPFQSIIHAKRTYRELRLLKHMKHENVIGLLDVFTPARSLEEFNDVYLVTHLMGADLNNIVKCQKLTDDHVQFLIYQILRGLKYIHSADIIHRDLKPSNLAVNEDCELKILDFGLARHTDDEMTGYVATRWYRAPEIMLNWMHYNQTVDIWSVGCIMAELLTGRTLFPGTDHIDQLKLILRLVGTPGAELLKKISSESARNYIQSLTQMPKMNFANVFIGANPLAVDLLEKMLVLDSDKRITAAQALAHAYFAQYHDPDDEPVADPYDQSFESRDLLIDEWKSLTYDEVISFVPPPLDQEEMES
DPP4: Dipeptidyl peptidase 4 (DPP4, Sus scrofa, UniProt P22411)
Chain of UniProt P22411 (whole entry, looked up): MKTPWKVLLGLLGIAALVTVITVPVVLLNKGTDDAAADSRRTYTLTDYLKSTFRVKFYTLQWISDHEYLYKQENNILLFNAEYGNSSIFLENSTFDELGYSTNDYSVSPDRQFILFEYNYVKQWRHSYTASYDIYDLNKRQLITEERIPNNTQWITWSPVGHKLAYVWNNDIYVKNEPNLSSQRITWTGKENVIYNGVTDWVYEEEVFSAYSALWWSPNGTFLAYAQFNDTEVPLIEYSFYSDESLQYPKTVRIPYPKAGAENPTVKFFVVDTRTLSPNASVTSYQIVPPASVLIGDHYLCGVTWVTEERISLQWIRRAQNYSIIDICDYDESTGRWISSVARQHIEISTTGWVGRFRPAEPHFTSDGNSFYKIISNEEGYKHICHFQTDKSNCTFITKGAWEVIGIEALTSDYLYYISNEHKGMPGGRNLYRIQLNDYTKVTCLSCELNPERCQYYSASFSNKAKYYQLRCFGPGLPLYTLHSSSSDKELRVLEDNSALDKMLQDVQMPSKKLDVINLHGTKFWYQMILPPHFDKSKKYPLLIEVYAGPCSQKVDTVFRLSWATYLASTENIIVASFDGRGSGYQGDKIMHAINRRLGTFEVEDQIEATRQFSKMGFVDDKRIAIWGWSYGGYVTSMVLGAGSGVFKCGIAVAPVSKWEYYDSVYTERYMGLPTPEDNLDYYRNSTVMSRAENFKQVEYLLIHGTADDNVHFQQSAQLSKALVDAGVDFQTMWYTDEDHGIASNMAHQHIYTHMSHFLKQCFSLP
TDP1: Tyrosyl-DNA phosphodiesterase 1 (TDP1, Homo sapiens, UniProt Q9NUW8)
Chain of UniProt Q9NUW8 (whole entry, looked up): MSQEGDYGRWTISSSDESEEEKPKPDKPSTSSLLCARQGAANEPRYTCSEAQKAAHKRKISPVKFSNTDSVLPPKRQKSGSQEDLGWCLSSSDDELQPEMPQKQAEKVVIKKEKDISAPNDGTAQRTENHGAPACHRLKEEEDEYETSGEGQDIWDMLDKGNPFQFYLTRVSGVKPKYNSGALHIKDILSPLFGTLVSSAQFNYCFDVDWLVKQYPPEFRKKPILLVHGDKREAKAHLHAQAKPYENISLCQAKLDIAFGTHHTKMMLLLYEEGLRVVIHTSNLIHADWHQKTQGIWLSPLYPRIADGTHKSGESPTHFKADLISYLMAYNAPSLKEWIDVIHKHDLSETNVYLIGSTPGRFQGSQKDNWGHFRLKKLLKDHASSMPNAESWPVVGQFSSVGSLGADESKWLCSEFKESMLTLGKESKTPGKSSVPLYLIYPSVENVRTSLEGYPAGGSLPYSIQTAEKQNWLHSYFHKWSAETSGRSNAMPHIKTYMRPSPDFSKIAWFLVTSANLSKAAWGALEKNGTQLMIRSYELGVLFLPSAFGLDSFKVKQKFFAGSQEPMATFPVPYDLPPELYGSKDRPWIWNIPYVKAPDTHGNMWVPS
Seed linoleate 13S-lipoxygenase-1: Seed linoleate 13S-lipoxygenase-1 (Glycine max, UniProt P08170)
Chain of UniProt P08170 (whole entry, looked up): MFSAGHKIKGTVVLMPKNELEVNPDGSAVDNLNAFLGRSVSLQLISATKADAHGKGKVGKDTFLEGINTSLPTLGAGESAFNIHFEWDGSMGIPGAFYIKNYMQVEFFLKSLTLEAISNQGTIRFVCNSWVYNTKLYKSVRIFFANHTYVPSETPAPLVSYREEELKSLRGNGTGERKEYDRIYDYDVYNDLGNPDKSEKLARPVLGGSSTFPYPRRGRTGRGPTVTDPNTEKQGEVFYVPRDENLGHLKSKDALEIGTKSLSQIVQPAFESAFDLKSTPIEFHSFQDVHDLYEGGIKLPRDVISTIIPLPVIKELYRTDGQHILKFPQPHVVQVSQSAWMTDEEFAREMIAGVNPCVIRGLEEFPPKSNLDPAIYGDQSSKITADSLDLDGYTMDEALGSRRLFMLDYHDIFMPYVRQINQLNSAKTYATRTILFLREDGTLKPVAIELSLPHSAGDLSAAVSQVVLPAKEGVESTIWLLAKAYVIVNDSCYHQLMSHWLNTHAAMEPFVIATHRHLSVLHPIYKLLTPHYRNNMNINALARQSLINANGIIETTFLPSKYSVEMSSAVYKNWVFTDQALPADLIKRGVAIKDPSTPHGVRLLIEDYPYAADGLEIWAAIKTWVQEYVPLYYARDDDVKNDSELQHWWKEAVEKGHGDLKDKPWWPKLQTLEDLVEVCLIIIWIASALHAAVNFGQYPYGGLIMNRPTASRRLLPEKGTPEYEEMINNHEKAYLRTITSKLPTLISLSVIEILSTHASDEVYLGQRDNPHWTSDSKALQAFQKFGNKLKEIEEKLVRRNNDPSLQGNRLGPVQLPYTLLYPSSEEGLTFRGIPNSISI
TXNRD1: Thioredoxin reductase 1, cytoplasmic (TXNRD1, Homo sapiens, UniProt Q16881)
Chain of UniProt Q16881 (whole entry, looked up): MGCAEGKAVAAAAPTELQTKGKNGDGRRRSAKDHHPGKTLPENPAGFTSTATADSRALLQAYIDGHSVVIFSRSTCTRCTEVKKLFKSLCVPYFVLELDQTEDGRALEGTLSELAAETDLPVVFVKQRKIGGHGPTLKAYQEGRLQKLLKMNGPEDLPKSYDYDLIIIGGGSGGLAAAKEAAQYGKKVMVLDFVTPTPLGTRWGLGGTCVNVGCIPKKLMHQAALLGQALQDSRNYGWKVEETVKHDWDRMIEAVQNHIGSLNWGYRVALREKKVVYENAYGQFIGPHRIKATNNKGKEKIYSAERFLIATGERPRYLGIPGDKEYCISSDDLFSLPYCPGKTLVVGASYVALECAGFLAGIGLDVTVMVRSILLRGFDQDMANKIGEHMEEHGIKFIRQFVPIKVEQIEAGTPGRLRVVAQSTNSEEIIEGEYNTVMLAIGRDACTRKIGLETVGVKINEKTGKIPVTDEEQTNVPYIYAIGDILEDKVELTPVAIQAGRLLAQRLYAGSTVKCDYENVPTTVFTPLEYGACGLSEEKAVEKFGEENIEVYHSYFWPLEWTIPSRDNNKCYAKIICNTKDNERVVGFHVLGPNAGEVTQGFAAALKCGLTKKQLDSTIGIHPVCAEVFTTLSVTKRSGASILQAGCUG
Chain of UniProt P29323 (whole entry, looked up): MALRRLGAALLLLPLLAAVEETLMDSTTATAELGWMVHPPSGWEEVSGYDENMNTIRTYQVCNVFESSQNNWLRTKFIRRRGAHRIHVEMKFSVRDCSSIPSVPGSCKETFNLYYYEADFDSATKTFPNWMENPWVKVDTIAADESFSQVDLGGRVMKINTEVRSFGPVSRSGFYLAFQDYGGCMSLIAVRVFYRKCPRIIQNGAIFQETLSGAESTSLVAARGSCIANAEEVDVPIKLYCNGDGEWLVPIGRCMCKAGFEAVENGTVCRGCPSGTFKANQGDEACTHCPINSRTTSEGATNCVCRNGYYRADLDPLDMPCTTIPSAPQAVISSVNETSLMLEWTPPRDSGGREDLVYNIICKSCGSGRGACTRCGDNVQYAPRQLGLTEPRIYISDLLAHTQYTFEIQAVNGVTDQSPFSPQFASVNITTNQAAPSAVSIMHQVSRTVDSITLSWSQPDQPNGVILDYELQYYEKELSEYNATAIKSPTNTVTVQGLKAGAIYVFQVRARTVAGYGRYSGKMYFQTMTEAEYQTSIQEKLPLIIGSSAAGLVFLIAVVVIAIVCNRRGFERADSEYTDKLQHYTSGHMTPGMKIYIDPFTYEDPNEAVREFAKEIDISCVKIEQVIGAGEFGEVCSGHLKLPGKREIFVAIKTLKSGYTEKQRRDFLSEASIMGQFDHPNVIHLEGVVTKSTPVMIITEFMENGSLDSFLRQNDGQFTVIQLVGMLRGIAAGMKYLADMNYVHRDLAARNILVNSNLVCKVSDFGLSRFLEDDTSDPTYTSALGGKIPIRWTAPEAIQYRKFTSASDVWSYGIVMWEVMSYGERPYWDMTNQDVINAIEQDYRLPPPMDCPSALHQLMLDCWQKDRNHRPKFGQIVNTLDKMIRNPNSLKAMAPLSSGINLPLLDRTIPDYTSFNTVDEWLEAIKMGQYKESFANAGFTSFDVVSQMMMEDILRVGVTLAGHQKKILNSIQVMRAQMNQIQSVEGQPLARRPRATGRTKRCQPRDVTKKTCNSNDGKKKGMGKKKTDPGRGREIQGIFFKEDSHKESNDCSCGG
Chain of UniProt Q9H2H9 (whole entry, looked up): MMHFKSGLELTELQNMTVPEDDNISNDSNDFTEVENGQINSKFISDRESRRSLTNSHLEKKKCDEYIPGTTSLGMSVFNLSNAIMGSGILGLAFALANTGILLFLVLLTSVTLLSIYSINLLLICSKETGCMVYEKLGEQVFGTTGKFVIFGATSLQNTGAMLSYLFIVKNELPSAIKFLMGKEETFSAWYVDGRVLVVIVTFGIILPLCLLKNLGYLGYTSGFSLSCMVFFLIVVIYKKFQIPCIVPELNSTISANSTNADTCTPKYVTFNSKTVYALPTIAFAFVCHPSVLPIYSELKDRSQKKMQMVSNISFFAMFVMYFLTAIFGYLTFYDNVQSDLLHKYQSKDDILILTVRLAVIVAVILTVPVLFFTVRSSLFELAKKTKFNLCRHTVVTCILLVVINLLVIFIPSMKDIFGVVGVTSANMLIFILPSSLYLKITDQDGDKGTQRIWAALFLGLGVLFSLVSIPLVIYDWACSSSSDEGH

CC(C)C[C@H](NC(=O)[C@H](CCC(N)=O)NC(=O)[C@H](CCCNC(=N)N)NC(=O)[C@H](CCCNC(=N)N)NC(=O)[C@@H](NC(=O)[C@H](CCCNC(=N)N)NC(=O)[C@@H](NC(=O)[C@H](CO)NC(=O)[C@@H](N)CS)[C@@H](C)O)C(C)C)C(N)=O  inhibition (Neutrophil cytosol factor 1 (NCF1, Homo sapiens, UniProt P14598); superoxide production, inhibitor, EPR; COS-Nox2 cell lysate; 10 µM): ~50%
c1ccc(CNc2cnccn2)cc1  inhibition (MAPK14; primary fragment screen; 1 mM, added: ATP 10 µM): 55.4%
FC(F)(F)c1csc(Nc2ccc(Cl)c(Cl)c2)n1  inhibition (Kinesin-like protein KIF15, residues 1-700 (Homo sapiens, UniProt Q9NS87); microtubule gliding; 100 µM, after washout): > 90%
O=C(c1ccco1)N1CCN(Cc2ccc3c(c2)OCO3)CC1  inhibition (MAPK14; primary fragment screen; 1 mM, added: ATP 10 µM): 69.4%
Cc1cc(O)c2c(c1)C(=O)c1cc3oc(=O)cc(-c4ccccc4)c3c(O)c1C2=O  inhibition (mushroom tyrosinase; enzyme activity; 50 µg/mL, added: L-DOPA): 22.3 ± 0.17%
C[C@@H](N)C1CCN(S(=O)(=O)c2cccc3cnccc23)CC1  inhibition (Serine/threonine-protein kinase RIO1 (RIOK1, Homo sapiens, UniProt Q9BRS2); cell-free assay, competition with immobilised ligand; 10 µM): > 95%
COc1cc(OC)c(C(=O)/C=C/c2ccccc2)c(O)c1O  inhibition (DPP4; enzyme activity, inhibitor, absorbance; 50 µg/mL): 97.4%
O=C(O)c1ccc(Nc2c(-c3ccc(CON=Cc4ccc(-c5cnccn5)cc4)cc3)nc3cc(-c4ccccc4)ccn23)cc1  inhibition (TDP1; enzyme activity, inhibitor; 100 µM): 102%
O=C(NCc1ccncc1)c1cc(F)cc(F)c1  inhibition (MAPK14; primary fragment screen; 1 mM, added: ATP 10 µM): 57.3%
CCn1c(SC(C)C(=O)Nc2cc(C)ccc2C)nnc1C1CCN(C(=O)Nc2ccccc2)CC1 (stereo not shown)  inhibition (Seed linoleate 13S-lipoxygenase-1; enzyme activity, inhibitor; 250 µM): 89.5%
COc1cc(OC)c2c(c1)C(=O)c1cc3oc(=O)cc(-c4ccccc4)c3c(O)c1C2=O  inhibition (mushroom tyrosinase; enzyme activity; 100 µg/mL, added: L-DOPA): 62.6 ± 0.65%
O=C1NCCN=C1CC(=O)c1ccccc1  inhibition (MAPK14; primary fragment screen; 1 mM, added: ATP 10 µM): 92.3%
CCn1c(C)c(C(=O)c2ccccc2)c(=O)n1-c1ccc(C)c(C)c1  inhibition (Tyrosine-protein kinase JAK2 (JAK2, Homo sapiens, UniProt O60674); enzyme activity, inhibitor, ADP detection; 1 µM): 57.4%
O=C(c1ccco1)N1CCN(Cc2ccc(Br)cc2)CC1  inhibition (MAPK14; primary fragment screen; 1 mM, added: ATP 10 µM): 76.1%
C=CC(=O)N1C[C@H](C)N(c2nc(OC[C@@]34CCCN3C[C@H](F)C4)nc3c(F)c(-c4ccc(F)c5sc(N)c(C#N)c45)c(C(F)(F)F)cc23)C[C@H]1C  inhibition (Cyclin-dependent kinase 19 (CDK19, Homo sapiens, UniProt Q9BWU1); binding, KINOMEscan; 1 µM): 87%
Cc1cc(O)c2c(c1)C(=O)c1cc3oc(=O)cc(-c4ccc(O)cc4)c3c(O)c1C2=O  inhibition (mushroom tyrosinase; enzyme activity; 50 µg/mL, added: L-DOPA): 26.5 ± 0.32%
O=C1c2ccccc2C(=O)c2c1ccc1c2C(C(=O)Nc2ccccc2Cl)C(=O)C1c1ccccc1 (stereo not shown)  inhibition (mushroom tyrosinase; enzyme activity, inhibitor, spectrophotometry; 25 µg/mL, added: L-DOPA substrate): 43.23 ± 0.15%
COc1cc(/C=C/C(=O)CC(C)=O)ccc1O  inhibition (TXNRD1; enzyme activity; MCF7; 25 µM, 48 h): 55%
COc1cc(OC)c2c(c1)C(=O)c1cc3oc(=O)cc(C)c3c(O)c1C2=O  inhibition (mushroom tyrosinase; enzyme activity; 50 µg/mL, added: L-DOPA): 49.4 ± 0.31%
CC[C@H](C)[C@H](NC(=O)[C@@H]1CSSC[C@H](NC(=O)[C@H](Cc2ccc(O)cc2)NC(=O)CNC(C)=O)C(=O)N[C@@H](CO)C(=O)N[C@@H](CCCNC(=N)N)C(=O)N[C@@H](CO)C(=O)N[C@@H](Cc2ccc(O)cc2)C(=O)N2CCC[C@H]2C(=O)N2CCC[C@H]2C(=O)N[C@@H](C(C)C)C(=O)N1)C(=O)N1CCC[C@H]1C(=O)N[C@@H](CC(=O)O)C(=O)O  inhibition (Mannan-binding lectin serine protease 1 (Homo sapiens, UniProt P48740); enzyme activity, inhibitor; 15 µM, added: 10 nM MASP-1): 17%
COc1cc(C(=O)NC2CCC(N3CCN(CC4CCC5(CCCC5)C4)CC3)CC2)c(F)cc1Nc1ncc2c(n1)N(C1CCCC1(F)F)CC(F)(F)C(=O)N2C (stereo not shown)  inhibition (Ephrin type-B receptor 2 (EPHB2, Homo sapiens, UniProt P29323); cell-free assay, TR-FRET; 10 µM): 0.68%
CC(C)(C)CCN1C[C@@H]2[C@@H](CNC(=O)c3cc(Cl)cc(Cl)c3)[C@@H]2C1.Cl  inhibition (Voltage-dependent L-type calcium channel subunit alpha-1F (Homo sapiens, UniProt O60840, M1004A); calcium current, whole-cell patch clamp; HEK-293T transfected; 10 µM, M1004A mutant): ~50%
OC[C@H]1[C@@H](O)[C@@H](O)CN1Cc1ccc(Br)cc1  inhibition (Alpha-mannosidase (Canavalia ensiformis, UniProt C0HJB3); enzyme activity, inhibitor, absorbance; 2 mM): 8%
O=C1c2ccccc2C(=O)c2c1ccc1c2C(C(=O)Nc2ccc(Br)cc2)C(=O)C1c1ccccc1 (stereo not shown)  inhibition (mushroom tyrosinase; enzyme activity, inhibitor, spectrophotometry; 25 µg/mL, added: L-DOPA substrate): 28.75 ± 0.21%
NCCCC[C@H](NC(=O)[C@@H]1CCCN1C(=O)[C@@H]1CSSC[C@H](N)C(=O)N[C@@H](Cc2ccc(O)cc2)C(=O)N[C@@H](Cc2ccccc2)C(=O)N[C@@H](CCC(N)=O)C(=O)N[C@@H](CC(N)=O)C(=O)N1)C(=O)NCC(N)=O  inhibition (Vasopressin V1a receptor (AVPR1A, Homo sapiens, UniProt P37288); ligand displacement, radioligand; 10 µM): > 50%
COc1c2c(cc3oc(=O)cc(-c4ccccc4)c13)C(=O)c1cc(C)cc(O)c1C2=O  inhibition (mushroom tyrosinase; enzyme activity; 100 µg/mL, added: L-DOPA): 46.99 ± 0.21%
Cc1cc(/C=C/c2ccc(O)c(O)c2)[nH]n1  inhibition (TXNRD1; enzyme activity; MCF7; 25 µM, 48 h): 27%
NCCC(=O)N[C@@H](Cc1c[nH]c2ccc(O)cc12)C(=O)N[C@@H](Cc1ccc(Cl)cc1)C(=O)N[C@@H](Cc1ccncc1)C(N)=O  inhibition (EphA3 receptor; ephrin-A5 binding, ELISA; 500 µM): 25%
CCn1c(SC(C)C(=O)Nc2ccccc2C)nnc1C1CCN(C(=O)Nc2ccccc2)CC1 (stereo not shown)  inhibition (Seed linoleate 13S-lipoxygenase-1; enzyme activity, inhibitor; 250 µM): 85.6%
COc1cc(OC)c2c(c1)C(=O)c1cc3oc(=O)cc(-c4ccc(Cl)cc4)c3c(O)c1C2=O  inhibition (mushroom tyrosinase; enzyme activity; 100 µg/mL, added: L-DOPA): 51.8 ± 0.55%
Cc1ccc(NC(=O)C2C(=O)C(c3ccccc3)c3ccc4c(c32)C(=O)c2ccccc2C4=O)cc1 (stereo not shown)  inhibition (mushroom tyrosinase; enzyme activity, inhibitor, spectrophotometry; 50 µg/mL, added: L-DOPA substrate): 70 ± 1.09%
Cc1cncc(Oc2ccc(C=NOCc3ccc(-c4nc5cc(-c6ccccc6)ccn5c4Nc4ccc(C(=O)O)cc4)cc3)cc2)n1  inhibition (TDP1; enzyme activity, inhibitor; 100 µM): 111%
COc1ccc(NC(=O)C2C(=O)C(c3ccccc3)c3ccc4c(c32)C(=O)c2ccccc2C4=O)cc1 (stereo not shown)  inhibition (mushroom tyrosinase; enzyme activity, inhibitor, spectrophotometry; 25 µg/mL, added: L-DOPA substrate): 21.2 ± 0.23%
O=C(NCCCN1CCOCC1)c1ccc(-n2ncc(Cl)c(Cl)c2=O)cc1  inhibition (TXNRD1; enzyme activity in cells, inhibitor; FaDu; 1 µM): ~40%
O=C1c2ccccc2C(=O)c2c1ccc1c2C(C(=O)NCc2ccccc2)C(=O)C1c1ccccc1 (stereo not shown)  inhibition (mushroom tyrosinase; enzyme activity, inhibitor, spectrophotometry; 50 µg/mL, added: L-DOPA substrate): 42 ± 0.46%
Cc1cc(=O)oc2cc3c(c(C)c12)C(=O)c1c(O)cccc1C3=O  inhibition (mushroom tyrosinase; enzyme activity; 50 µg/mL, added: L-DOPA): 27.71 ± 0.25%
CCn1c(SC(C)C(=O)Nc2cccc(C)c2C)nnc1C1CCN(C(=O)Nc2ccccc2)CC1 (stereo not shown)  inhibition (Seed linoleate 13S-lipoxygenase-1; enzyme activity, inhibitor; 250 µM): 89.7%
COc1cc(O)c2c(=O)cc(-c3ccccc3)oc2c1  inhibition (DPP4; enzyme activity, inhibitor, absorbance; 50 µg/mL): 26.1%
Cc1ccc2c(c1)C(O)(CC(=O)c1ccc3c(c1)OCCO3)C(=O)N2 (stereo not shown)  inhibition (Uncharacterized protein (Trypanosoma brucei brucei, UniProt Q386Q8); enzyme activity, inhibitor, coupled colorimetric; Trypanosoma brucei; 100 µM): 0%
Cc1cc(O)cc2c1C(=O)c1c(cc3oc(=O)cc(-c4ccc(Cl)cc4)c3c1O)C2=O  inhibition (mushroom tyrosinase; enzyme activity; 25 µg/mL, added: L-DOPA): 26.3 ± 0.31%
CC(=O)Nc1cc(COc2c(Cl)cc(CC(N)C(=O)O)cc2Cl)c2oc(-c3ccccc3)nc2c1 (stereo not shown)  inhibition (SLC38A1 (Homo sapiens, UniProt Q9H2H9); L-alanine uptake; Xenopus oocytes; 1 and 10 µM, 30 min, added: L-[14C]alanine 50 µM): no inhibition
COc1ccccc1CCn1c2c(c3c1-c1ccccc1C3=O)C(=O)CCC2  inhibition (Multidrug resistance-associated protein 1 (ABCC1, Homo sapiens, UniProt P33527); calcein efflux; HEK293 expressing MRP1; 2 µM; relative to: verapamil 35 µM as 100%): inhibited
O=c1c2ccccc2ncn1-c1ccccc1F  inhibition (MAPK14; primary fragment screen; 1 mM, added: ATP 10 µM): 67.6%
COc1cc(Oc2c(O)cc(C)c(Br)c2OC)c(C(=O)O)c(C)c1O  inhibition (Gag-Pol polyprotein, reverse transcriptase (gag-pol, Human immunodeficiency virus 1, UniProt P03366); enzyme activity, inhibitor, PicoGreen fluorescence; 10 µM): 4.4 ± 0.3%
Nc1n[nH]c(Nc2ccc(Cl)cc2)n1  inhibition (MAPK14; primary fragment screen; 1 mM, added: ATP 10 µM): 7.9%
O=C1c2ccccc2C(=O)c2c1ccc1c2C(C(=O)Nc2ccccc2)C(=O)C1c1ccccc1 (stereo not shown)  inhibition (mushroom tyrosinase; enzyme activity, inhibitor, spectrophotometry; 100 µg/mL, added: L-DOPA substrate): 66.2 ± 0.81%

A few entries again:
CCn1c(SC(C)C(=O)Nc2cc(C)ccc2C)nnc1C1CCN(C(=O)Nc2ccccc2)CC1 (stereo not shown)  inhibition (Seed linoleate 13S-lipoxygenase-1; enzyme activity, inhibitor; 250 µM): 89.5%
CCn1c(SC(C)C(=O)Nc2ccccc2C)nnc1C1CCN(C(=O)Nc2ccccc2)CC1 (stereo not shown)  inhibition (Seed linoleate 13S-lipoxygenase-1; enzyme activity, inhibitor; 250 µM): 85.6%
O=C(c1ccco1)N1CCN(Cc2ccc3c(c2)OCO3)CC1  inhibition (MAPK14; primary fragment screen; 1 mM, added: ATP 10 µM): 69.4%
Cc1cncc(Oc2ccc(C=NOCc3ccc(-c4nc5cc(-c6ccccc6)ccn5c4Nc4ccc(C(=O)O)cc4)cc3)cc2)n1  inhibition (TDP1; enzyme activity, inhibitor; 100 µM): 111%
Cc1cc(O)c2c(c1)C(=O)c1cc3oc(=O)cc(-c4ccc(O)cc4)c3c(O)c1C2=O  inhibition (mushroom tyrosinase; enzyme activity; 50 µg/mL, added: L-DOPA): 26.5 ± 0.32%
COc1cc(/C=C/C(=O)CC(C)=O)ccc1O  inhibition (TXNRD1; enzyme activity; MCF7; 25 µM, 48 h): 55%
O=C(c1ccco1)N1CCN(Cc2ccc(Br)cc2)CC1  inhibition (MAPK14; primary fragment screen; 1 mM, added: ATP 10 µM): 76.1%
